# Results from different studies.
# Every numbered part comes from another study and shows a few of its results, in no order. Substitutions count along the parent as printed.

# Set 1
# Target: Interferon regulatory factor 7, full length, phosphomimetic (IRF7, Homo sapiens, UniProt Q92985, residues 1-503, S471D/S472D/S475D/S476D/S477D/S483D/S484D/S487D)
# Technique: protein-binding microarray
# Molecule type: double-stranded DNA, one strand shown
# Sample: in vitro
# Tested at: 2200 nM top
# Notes: 60-bp whole probe
# Added: salmon DNA 0.4 mg/ml
# Baseline: random background probes
# Direction: higher = stronger binding
# Shared flanks, not repeated: GCCTAGCAC … GTCTTGATTCGCTTGACGCTGCTG
# Target sequence (chain): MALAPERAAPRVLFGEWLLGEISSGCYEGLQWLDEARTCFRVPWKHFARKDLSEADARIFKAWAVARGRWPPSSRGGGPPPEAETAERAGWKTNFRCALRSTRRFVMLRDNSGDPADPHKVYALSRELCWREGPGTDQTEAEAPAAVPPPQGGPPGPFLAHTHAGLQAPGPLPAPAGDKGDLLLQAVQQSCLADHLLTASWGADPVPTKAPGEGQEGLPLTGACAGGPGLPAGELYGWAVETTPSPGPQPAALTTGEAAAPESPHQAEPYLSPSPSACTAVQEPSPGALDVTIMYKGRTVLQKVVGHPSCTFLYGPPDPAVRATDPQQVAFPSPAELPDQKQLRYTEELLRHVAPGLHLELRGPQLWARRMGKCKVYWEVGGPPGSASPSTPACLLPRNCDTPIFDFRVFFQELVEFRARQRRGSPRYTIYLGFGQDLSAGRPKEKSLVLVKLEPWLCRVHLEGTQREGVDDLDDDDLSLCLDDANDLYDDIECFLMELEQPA
Strand,fitted relative affinity [z-score]
TTTGGTTCCCTTTTCCTTTAGTGCTAG,3.93
TTAGAACTGGGCACTGGATTAGTGCTA,-0.97
TTAGGTCGCCTTATCCTTTAGTGCTAG,0.395
TCCAGGCTGGTCTCTAACTCAGTGCTA,-0.274
GACGGTCTCGTTATCGGGACGTGCTAG,0.176
AGAGCCTGGGGATGCAGAGAGTGCTAG,-0.991
TCAATTCTGAAAATGGAACTGTGCTAG,0.106
TTACGTTTCCTACTGCTTTAGTGCTAG,3.99
TTAGGTATCGAATTTCGGTTAGTGCTA,2.78
TTAGGTTCGGGTTTCGGTTAGTGCTAG,6.15
TTAGGTATAGGGTATCGGTTAGTGCTA,-0.251
TCAACCATCATCCTCACACTGTGCTAG,1.36
TTAGGACTGCTTCACCTTTAGTGCTAG,0.419
GAATGTCCTCCTCTCTCTTTGTGCTAG,1.6
GTGCTTCACAGAGGCGGCTGGTGCTAG,0.247
AGGATCCAGCCTGCAACCTCGTGCTAG,-0.11
GAAGGTATCCTTTTCCTGACGTGCTAG,1.02
GACGGACTGGGACTGTGGACGTGCTAG,-1.2
GACGGTCTCCTCTTCCTGACGTGCTAG,0.962
GACGATATCAGTATCGATACGTGCTAG,0.459
TTGGGTCTCCTTCTCCTTTAGTGCTAG,1.04
TTAGGACTGGACTTACGGTTAGTGCTA,-0.276
TTAGGTTTCGGGTTTCCGTTAGTGCTA,9.18
TTAGGTAGCGGGTATCGGTTAGTGCTA,-0.493
TCATTTCTATCTCTGTTACTGTGCTAG,2.74

# Set 2
# Target: RING finger protein unkempt homolog, zinc fingers 1-6, GST-SBP tag (UNK, Homo sapiens, UniProt Q9C0B0, residues 30-357)
# Chain of UniProt Q9C0B0 (30-357, looked up): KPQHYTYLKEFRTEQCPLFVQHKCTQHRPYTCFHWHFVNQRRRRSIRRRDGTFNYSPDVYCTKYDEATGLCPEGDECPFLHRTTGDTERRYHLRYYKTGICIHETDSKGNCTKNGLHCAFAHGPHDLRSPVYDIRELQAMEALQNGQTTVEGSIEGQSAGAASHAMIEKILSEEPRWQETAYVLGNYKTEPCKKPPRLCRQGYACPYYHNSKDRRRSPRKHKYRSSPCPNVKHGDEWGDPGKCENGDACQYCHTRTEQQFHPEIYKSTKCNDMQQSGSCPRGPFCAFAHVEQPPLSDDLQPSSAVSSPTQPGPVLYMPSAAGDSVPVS
# Technique: RNA Bind-n-Seq
# Molecule type: RNA
# Sample: in vitro
# Tested at: not given
# Notes: RNA with constant flanks, ends assumed
# Baseline: input RNA pool
# Direction: higher = stronger binding
Strand,bound/input enrichment
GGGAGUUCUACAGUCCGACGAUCCUCGGCACCGGCACGCUUUACAUCGCGGAGAGCCGCCUGUCCUGGUUAGAUGGUUCGGGAUCCGGAUUCUCACUGGAAUACCCCACCAUUAGUUUACAUGCGGUGUCCAGGGAUCCAAACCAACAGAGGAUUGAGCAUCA,0.477 ratio
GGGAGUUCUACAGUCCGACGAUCGAAGACCUGAAAAAGCUGCAUGAUGAAAAAAUCGAGUCAUUGAGAGCUGAAUUUCAGUGCUCCGAACAAAAUCACCUGAAGGAAUUAGAGGACACACUGCACAUCAGGCACACACAGGAGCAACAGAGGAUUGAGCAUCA,0.591 ratio
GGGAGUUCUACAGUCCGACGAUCCACCUGCAGGAUAUUAAAGUGAAAUUUUCUGACCCUGGACAGCCUAUGUCUUUUGUGUCCGAGUUCCACUUUGAACCCAACGACUACUUUACCAACUCAGUCCUGACAAAAACCUACAAGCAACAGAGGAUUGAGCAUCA,0.159 ratio
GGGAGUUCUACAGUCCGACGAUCGGGGGCCAGGGGGCGGUGGCGGGAGGAUUGAGUGCCUAGACGGUCGCCCAGGAGCAGGUGCCGCUACUUCACAUCGACUGACUCCAAGAUGGCAAUCCAGUUGCGUUCGCUCUUCCCCUUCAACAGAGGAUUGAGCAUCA,0.44 ratio
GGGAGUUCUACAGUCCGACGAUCCACUUGAUGCCCCCACGAAUCCUAGUGGAAUGUUUACUCCCCAAUGGAAUGAUAGUGACUUCCGAAUGCCUCCGUGAGGCCACACUCGUCACCAUCAAACAUGAACUGUUCAGAGAGGCCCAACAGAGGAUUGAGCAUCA,0.169 ratio
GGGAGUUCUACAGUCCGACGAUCUGUGAACAGAAAAGAGGCAAAGAUAAUAAAGCUAUUAUUGCAUCAAAUAUCAUGUACACCGCCGGUCAAUACCCACGUUUUUUGAGAGCUCACUGGAAAUUUCUGAAGACUGUAGUUAACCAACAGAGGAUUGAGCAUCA,0.576 ratio
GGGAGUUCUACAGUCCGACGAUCUACCAGUCAUAUAAUCAGUAUCCUAAUGGGUCAGCCAAUGGCUUUGGUGCAGUUAGAAACUUCCGCCCCACUGACUAUUAUCAUUCAGAAAUUCCAAACACAAGACCACAUGAAAUUCUGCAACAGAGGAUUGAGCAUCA,0.29 ratio
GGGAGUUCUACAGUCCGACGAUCAGGUCCAGUGUAUCUAAGGUGCCCUUAUUGCUUCCAAAUGUUUCUGCUUUGGAAUCUCAAACCGAAAUGGGCAACAUAGUUAAACCCAAAGUACUUACGAAAGAAGCAGAGGAAAAACUUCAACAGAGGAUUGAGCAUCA,0.185 ratio
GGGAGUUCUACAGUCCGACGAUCGAUAUCUGUCGUAGAAACCUCGACAUUGAGCGCCCAACCUACACUAACCUAAACAGGUUGACCGGUCAAAUUGUGUCUUCCAUCACUGCUUCCCUCAGAUUUGAUGGGGCCCUGAAUGUUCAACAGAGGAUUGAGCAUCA,0.227 ratio
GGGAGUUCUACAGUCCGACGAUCAAAGCCCAAGUAUUUUGAAAAAACUCGAACAGAUUUGACAAGGGUAGCCAGCUUGGAGUCCCGCAACUUGCCAAUGUGUUUACCAAUCUGGGGGCUUGUUUUUCUUUUCUUCUUUCAAAUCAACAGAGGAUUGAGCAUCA,0.364 ratio
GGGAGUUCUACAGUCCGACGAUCGGUGAGCUUCAUUUUCUCCAAAUUGGAGGAACCUGUGAUGAUAUUGAUGAAGCUGAUAUUCUGGCCGAUGGAUCCCUUUCUAAAGGAAUAGAACCAGCUCUAGAAGGUUCCAGACCUUUACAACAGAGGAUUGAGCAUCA,0.162 ratio

# Set 3
# Target: ABI1, truncated, D143A, DHFR fusion (Arabidopsis thaliana, UniProt P49597)
# Technique: DHFR PCA, dose-response
# Sample: yeast
# Notes: Hill fit, mean, not affinity
# Added: (+)-ABA, dose series
# Direction: lower = more sensitive
# Starting sequence: PYL1, truncated, DHFR fusion (Arabidopsis thaliana, UniProt Q8VZS8); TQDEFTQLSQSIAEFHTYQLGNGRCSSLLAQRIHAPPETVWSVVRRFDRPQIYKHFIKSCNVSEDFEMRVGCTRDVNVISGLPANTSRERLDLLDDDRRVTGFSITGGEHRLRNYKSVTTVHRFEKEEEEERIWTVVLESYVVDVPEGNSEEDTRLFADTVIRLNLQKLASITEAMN
Substitution,ABA EC50 [µM]
E109R,16.1
T1C,1.44
S171V,2.21
R49D,38.8
E64A,1.97
D97L,6.37
F56V,413
T73Q,2.86
R111N,24
F5I,6.02
R123A,2.95
E147M,3.78
D153H,41.2
E139F,330
R155W,170
S27E,71.4
G23F,22.8
G23I,76.9
S63Y,11.8
F15G,323
T119S,72.8
E139K,150
A175R,1.49
S27F,196
D96A,169

# Set 4
# Target: RNA binding protein fox-1 homolog 2, RRM domain, GST-SBP tag (RBFOX2, Homo sapiens, UniProt O43251-10, residues 100-194)
# Technique: RNA Bind-n-Seq
# Molecule type: RNA
# Sample: in vitro
# Tested at: 365 nM
# Notes: natural RNA segment, single round, ends assumed
# Baseline: no-protein control
# Direction: higher = stronger binding
# Target sequence (chain): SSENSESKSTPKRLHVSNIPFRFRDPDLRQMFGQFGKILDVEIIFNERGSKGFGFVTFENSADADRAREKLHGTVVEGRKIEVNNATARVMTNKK
Strand,RBNS enrichment (R)
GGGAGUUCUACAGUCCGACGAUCUCAAAGACUUUUGUAGCAUACAAAGUGAAAACUUGUAUCUGCGAAACUAUACUUGUAUUAAAUGUGCUUUUUAAAUAAAAGCUCGUAACACAACUAAUUAAGGACUUGCAUGGAAUUCUCGGGUGCCAA,1.12
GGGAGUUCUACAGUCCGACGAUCCGUUCUGUCACUUUGAACGAAGUCUGAGUGAGGCUAGUGACUCCUUGGGUGUCCUCAACAGUGAAUUCACUGUCUGCGUGCAGUUAUUACAUGCAUUUGUGCAUUUCUACUGGAAUUCUCGGGUGCCAA,0.243
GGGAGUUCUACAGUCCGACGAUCUUAACUGUAUUGGUGUAAGAGUUUUGUCAUUAAGUGUUUAAGUGUUAUUCUGAAUUUUCUACCUUAGUUAUCAUUAAUGUAGUUCCUCAUUGAACAUGUGAUAAUCUAAUUGGAAUUCUCGGGUGCCAA,0.823
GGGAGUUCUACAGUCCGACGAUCCAUGGAGUGCCCAUGCAUACUCUGCUGCCGGUCCCCUCACCUGCACUUGAGGGGUCUGGGCAGUCCCUCCUCUCCCCAGUGUCCACAGUCACUGAGCCAGACGGUCGGUUUGGAAUUCUCGGGUGCCAA,1.22
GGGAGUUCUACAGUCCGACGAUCAAUACUUUUGUUCCAAACCAUUAAGUAAUGUACGCAUGUUAAACACGUAGAGUGCCUGGCACUGGCAAGGACUCAGUGGUCCACUAUUGUGACAGUAAUGGUUAUUACAAUGGAAUUCUCGGGUGCCAA,4.43
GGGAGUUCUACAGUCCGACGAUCGCUCUAAUAUUACACAGUAAGUUCAAAGAAAGGAUGUAAGUCAAAGACUUGUUACAUAGAGGGAAAAUGGACUGGGAUAGAGGACAGACUGAUAGUUUCUUUCUUUCAUAUGGAAUUCUCGGGUGCCAA,0.828
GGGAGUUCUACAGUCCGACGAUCCAUGGAGAACAGGAGCCGGGCCCUGGGAUCCUUCUGUUCUGUUAAACAGAACAGAACAGCCUUUGCACUAAAUUAGUGACUCGCGCAGUGAACACAGGCUGCGAUGCUCUUGGAAUUCUCGGGUGCCAA,0.373
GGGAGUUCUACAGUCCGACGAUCAGUCACUGAGCCAGACGGUCGGUUGGAACAUGAGACUCGAGGCUGAGCGUGGAUCUGAACACCACAGCCCCUGUACUUGGGUUGCCUCUUGUCCCUGAACUUCGUUGUACUGGAAUUCUCGGGUGCCAA,0.317
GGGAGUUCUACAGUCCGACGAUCCAUUGUUGGAGAGGGUGGGGGAAAGGUUCAAACAUUGUCAAUUUUUCUGACUUUUUAAAUCAUCAUCAUUAUUUUUAAUUAAAAAAAAAUGCCUGUAUGCCUUUUUCUGGUGGAAUUCUCGGGUGCCAA,0.535
